Experimental data collected from several papers.
Numbers after ± are the reported error.

`O=C(O)CC[C@H](NC(=O)N[C@@H](CCCCNC(=O)[C@H](Cc1ccc2ccccc2c1)NC(=O)[C@H]1CC[C@H](CNC(=O)CNC(=O)CNC(=O)CNC(=O)CN2CCN(CC(=O)O)CCN(C(CCC(=O)NCCC[P+](c3ccccc3)(c3ccccc3)c3ccccc3)C(=O)O)CCN(CC(=O)O)CC2)CC1)C(=O)O)C(=O)O` (stereo partly drawn) [terbium-161 labelled] — result for “total cellular uptake”: 64.5% (PC-3 PIP (PSMA+); concentration not given, internalized plus surface-bound).
`CC1=CC(=O)C[C@@H]2[C@@H](O)C[C@H]3[C@@H]4CC[C@H](O)[C@@]4(C)CC[C@@H]3[C@@]12C` has an inhibition of 53.7 ± 1.4% (PMA-differentiated THP-1; TNF-α production, ELISA; concentration not given, 4 h, together with: LPS 50 ng/mL).
The IC50 of `Cc1[nH]c2cc(Cl)cc(Cl)c2c1CCN` is reported as 37 µM (NCI-H441; cell growth or viability, ATP luminescence; 72 h).
`O=C(O)CC[C@H](NC(=O)N[C@@H](CCCCNC(=O)[C@H](Cc1ccc2ccccc2c1)NC(=O)[C@H]1CC[C@H](CNC(=O)CN2CCN(CC(=O)O)CCN(C(CCC(=O)NCCC[P+](c3ccccc3)(c3ccccc3)c3ccccc3)C(=O)O)CCN(CC(=O)O)CC2)CC1)C(=O)O)C(=O)O` (stereo partly drawn) [terbium-161 labelled] — result for “total cellular uptake”: 91.1% (PC-3 PIP (PSMA+); concentration not given, internalized plus surface-bound).
For `N=C(N)NCCCCCCN1CCC23c4c5ccc(O)c4OC2c2nc4ccccc4cc2CC3(O)C1C5` (stereo not drawn), “holding current change” read ~0 pA (rat VTA neurons; ion current; 10 µM).
With `Cc1[nH]c(=O)c(CNC(=O)c2ccc(C(F)(F)F)cc2)c2c1CCCC2` the selectivity index was > 20 (Vero; relative to: IC50 Vero over MIC M. tuberculosis).
For `C/C1=C\CC[C@@]2(C)O[C@H]2[C@H]2OC(=O)C(C)[C@@H]2CC1` (stereo partly drawn), the IC50 was > 500 µM (GBM6; cell growth or viability, resazurin).
`Cc1cccc(C)c1N1Cc2cnc(Nc3ccc(N4CCN(C)CC4)cc3)nc2N(C23CC4CC(CC(C4)C2)C3)C1=O`: “MMP secretion and expression” “inhibited” (normal human fibroblasts; concentration not given, together with: UV-A).
The inhibition of `CC1=CC(=O)C=C2CC[C@@H]3[C@H](CC[C@]4(C)C(=O)CC[C@@H]34)[C@@]12C` is reported as 71 ± 7.2% (PMA-differentiated THP-1; TNF-α production, ELISA; concentration not given, 4 h, together with: LPS 50 ng/mL).

Repeated from above:
The IC50 of `Cc1[nH]c2cc(Cl)cc(Cl)c2c1CCN` is reported as 37 µM (NCI-H441; cell growth or viability, ATP luminescence; 72 h).
